Measurements from different studies.
A part holds a random share of what one study measured. Positions count from the first letter of the parent shown.
Sequence of UniProt P08588 (whole entry, looked up): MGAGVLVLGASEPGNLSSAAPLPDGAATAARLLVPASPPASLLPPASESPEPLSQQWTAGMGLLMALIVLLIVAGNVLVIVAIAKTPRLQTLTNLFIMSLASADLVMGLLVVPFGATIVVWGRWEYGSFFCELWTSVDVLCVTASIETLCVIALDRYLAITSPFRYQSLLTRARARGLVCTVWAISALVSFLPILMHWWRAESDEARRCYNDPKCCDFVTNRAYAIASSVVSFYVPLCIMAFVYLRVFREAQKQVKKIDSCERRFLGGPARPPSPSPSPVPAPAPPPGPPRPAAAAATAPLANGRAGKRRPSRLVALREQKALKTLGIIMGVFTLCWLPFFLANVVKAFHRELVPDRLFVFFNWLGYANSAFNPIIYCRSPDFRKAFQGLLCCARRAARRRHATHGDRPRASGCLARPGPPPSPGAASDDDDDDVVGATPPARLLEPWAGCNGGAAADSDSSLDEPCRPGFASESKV

Set 1
Target: Sal-like protein 4, full length isoform A (SALL4, Homo sapiens, UniProt Q9UJQ4, residues 1-1053)
Sequence of UniProt Q9UJQ4 (whole entry, looked up): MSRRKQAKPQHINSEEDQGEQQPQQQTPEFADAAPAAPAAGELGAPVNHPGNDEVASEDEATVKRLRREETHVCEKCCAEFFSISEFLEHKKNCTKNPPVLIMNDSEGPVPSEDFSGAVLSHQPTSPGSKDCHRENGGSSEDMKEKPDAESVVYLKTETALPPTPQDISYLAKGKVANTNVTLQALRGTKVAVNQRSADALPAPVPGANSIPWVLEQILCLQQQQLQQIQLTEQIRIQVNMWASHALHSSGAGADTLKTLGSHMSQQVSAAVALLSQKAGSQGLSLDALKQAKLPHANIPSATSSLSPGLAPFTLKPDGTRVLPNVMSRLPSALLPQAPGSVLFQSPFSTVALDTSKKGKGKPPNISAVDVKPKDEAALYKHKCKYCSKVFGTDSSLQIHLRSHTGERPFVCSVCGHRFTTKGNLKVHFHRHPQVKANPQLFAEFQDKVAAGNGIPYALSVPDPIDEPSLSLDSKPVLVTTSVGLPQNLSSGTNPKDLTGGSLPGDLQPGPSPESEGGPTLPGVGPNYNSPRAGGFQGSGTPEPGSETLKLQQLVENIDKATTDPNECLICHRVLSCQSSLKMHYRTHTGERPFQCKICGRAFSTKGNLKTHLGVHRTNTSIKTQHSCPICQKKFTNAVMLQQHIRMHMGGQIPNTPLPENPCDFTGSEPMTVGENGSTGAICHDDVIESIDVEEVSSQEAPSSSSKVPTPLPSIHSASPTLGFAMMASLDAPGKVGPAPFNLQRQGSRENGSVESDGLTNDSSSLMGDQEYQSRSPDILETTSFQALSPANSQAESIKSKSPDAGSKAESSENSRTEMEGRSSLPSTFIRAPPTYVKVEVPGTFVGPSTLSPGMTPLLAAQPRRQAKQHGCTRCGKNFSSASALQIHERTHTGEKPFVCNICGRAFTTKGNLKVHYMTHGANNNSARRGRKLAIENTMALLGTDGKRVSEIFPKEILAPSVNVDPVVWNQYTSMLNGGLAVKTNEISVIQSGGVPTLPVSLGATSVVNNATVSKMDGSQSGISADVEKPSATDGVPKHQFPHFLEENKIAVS
Technique: universal PBM
Form: double-stranded DNA, one strand shown
Sample: in vitro
Concentration: 600 nM
Setting: 8-mer, flanks averaged, mean of replicates
Direction: higher = stronger binding
Endpoint: E-score
Oligonucleotide = AAAGCATG; result = 0.0716
Oligonucleotide = CAGGGATA; result = 0.0548
Oligonucleotide = CAATCCTA; result = 0.0542
Oligonucleotide = ATCACGCG; result = -0.025
Oligonucleotide = CGCCCGGA; result = -0.359
Oligonucleotide = ACGAGCTG; result = -0.126
Oligonucleotide = AACAAATT; result = 0.33
Oligonucleotide = ATGAACTC; result = -0.0135

Set 2
Target: CCND3, cyclin fold, Cln2 fusion (human)
Technique: yeast growth competition, sequencing
Sample: yeast
Setting: weak parent motif
Reference: not given
Direction: higher = stronger binding
Endpoint: normalised enrichment score
Parent: viral docking peptide; YKVKRRLVFGADD
Substitution = YKVKRRVVFGADD [L7V]; result = 0.2
Substitution = YKVKRILVFGADD [R6I]; result = 0.159
Substitution = YKVKRRLVNGADD [F9N]; result = 0.163
Substitution = YKVKRCLVFGADD [R6C]; result = 0.1
Substitution = YKVKRRLVVGADD [F9V]; result = 0.0233
Substitution = YKVKRRAVFGADD [L7A]; result = 0.144
Substitution = YKSKRRLVFGADD [V3S]; result = 0.208
Substitution = YKVKRRLGFGADD [V8G]; result = 0.367
Substitution = YKVKRRLVFGARD [D12R]; result = 0.0342
Substitution = YKVFRRLVFGADD [K4F]; result = 0.203
Substitution = YKVKRRLVFAADD [G10A]; result = 0.126
Substitution = YKVKRRNVFGADD [L7N]; result = 0.417
Substitution = YKVKRHLVFGADD [R6H]; result = -0.0533
Substitution = YKQKRRLVFGADD [V3Q]; result = 0.154
Substitution = YKVKRRLVFVADD [G10V]; result = 0.208

Set 3
Target: Hepatocyte nuclear factor 3-alpha (Foxa1, Mus musculus, UniProt P35582, residues 1-468, full length assumed)
Technique: EMSA with sequencing
Form: double-stranded DNA, one strand shown
Sample: in vitro
Concentration: 10 and 20 nM
Setting: whole designed probe, mean of two concentrations, ends assumed
Reference: negative control set to 0
Direction: higher = stronger binding
Endpoint: normalised bound fraction
Shared flanks, not repeated: GTGAGCGGTGCCCATTGATGGGGAAC … TTTCACTGGGATCGTGGGGAC
Target sequence (chain): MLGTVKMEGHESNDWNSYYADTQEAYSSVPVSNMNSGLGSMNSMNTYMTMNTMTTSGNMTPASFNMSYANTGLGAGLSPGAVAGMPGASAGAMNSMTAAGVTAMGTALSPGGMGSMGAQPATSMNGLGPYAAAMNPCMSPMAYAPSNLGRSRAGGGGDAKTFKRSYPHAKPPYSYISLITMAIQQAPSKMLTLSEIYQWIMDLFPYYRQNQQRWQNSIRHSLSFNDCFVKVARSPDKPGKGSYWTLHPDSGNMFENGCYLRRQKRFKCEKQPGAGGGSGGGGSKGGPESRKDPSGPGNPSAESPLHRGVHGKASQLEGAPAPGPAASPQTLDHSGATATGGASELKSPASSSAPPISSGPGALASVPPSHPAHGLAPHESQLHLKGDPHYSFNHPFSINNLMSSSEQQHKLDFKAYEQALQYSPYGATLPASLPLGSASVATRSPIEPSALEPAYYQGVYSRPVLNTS
Oligonucleotide = GCTTACAGTTTCTCAGGGGCCTGGCACTTTGCTCTGTTGTCCCAGTGACTCACATGATAATTTTCCAGGCCTTCAAACTAGGTCAACAGCTTTGTTTGCCCAGAGAGCTCCCCTGGGAGGCCATTCTAAGGAAAGCAGACTGAAAGGGGATGTTTGGCCAGGTGATTCTTTTTGCTGGCTTTTAGCCTGAGGA; result = 0.182 ratio
Oligonucleotide = CACTCATAGTCTTGCTATCCTTCATATACAGAGATGACCCTCCCAAGCCTAAAATCAACAGGGGGAGGCATAGAGCTGTCCTTCTGGCTCTAATGTTTGCTTTACCATCATCTTAGTCCATCCACGCCCATGCATGTGAGAGCCAGTGTGAAGTGAGCAGAATATGGCATAAGTATGGAGTCATACATCCTTA; result = 0.381 ratio
Oligonucleotide = ATCTTCCCCCTCTTCCTTGCCCCACCAGCTCACCTACGGGGGTTATTTGCAGATAGGAAAATAAATAAAGCCGGCATTCGTTAACGCAGTTCACGCGCATACTGCTGTTTGCTCTGCATGAATCATGGTCCTTACGCGACGCCAGGCTCCGGGAGAGCAAAGCACCGTGTCAGGCGCATGATCCGGGCTCGCC; result = 0.357 ratio
Oligonucleotide = CATTAGAGTCAAAGTTGTTAAGGGGAGCTAGTCATAGCTACCACGTGGCCAGGCATGTATGAATCATCAGGAACCAGACACCAGGCACACATCTATTTACTTTAAATAATGCTGACAACCTAGTTCATAGTGACACACTACTTGAGATATATAGAATAACATTATTACCCAGTAAGTATGTGAACATTCCGAT; result = 0.366 ratio
Oligonucleotide = GCGTAGCGGCCGTAGCACCAGTTCCCGCCTCCCCCGCGGCCCGGCGCTGCGGGCGGGACCTGCGGCGACCTGTGGGCGGAAGTCTGTGGCTTTATTTACACAGAGGGCAGCCCGTGGAGGCTAGCCTTGTAAGGACGAATCGCTGGCGGGCCTGTGGGGGAGGCCAGGAAAGGCGGCCTTCGCCTGATAGGAA; result = 0.462 ratio
Oligonucleotide = GTTTGGCATTTATTTTTACTTTGTTGTAATAGTAATCTCAAGGGATCCCCTTTATTTAGCATAAAATTTCCTTGCCAGAAAGTAATTTTTTGAAGATTATATAAGCAGCTATAAAAACAATTTCCTGAGAGATTTCTCCACAAAAATATTTACCTGCTTGAGCCGATGGATTGAGATGATTTGGAAACCAAAC; result = -0.0153 ratio
Oligonucleotide = AACAACCAGGAGGAAACAGGGTGATTATTGATTCAAGAGAAAACAGAATATTTGTGGATTTAGGGTCAATAAAACAACCTCCACAAATGTTAAAGTAATCTAGGAAAAATATAGCTTTAAAAAATGGACAACTAGGAGAATTTCTTTTCACATAGCAATGCAATTTTCTCCTCACAGTGATAGTCATAATTTC; result = 0.173 ratio
Oligonucleotide = AGGTTGTCTGGACAAAAGTTGTATCTACCAAACTAAATGTGTACCAAGTGAGATATCCAAGGTCACTTAGCAAACATTCTGTTAGGGATAATGTAATCTTGAAAAGAAATTTAAGGATTTTTTTTTTTAAGACTGTTTTTGGAAACAACCAAGAGGAGAGACAAAAGGCACTTCAGTGAGGACTTTAAGCCAG; result = 0.169 ratio

Further values, each from its own experiment
Structure (SMILES) = N[C@H](C(=O)O)[C@H](O)c1ccc(O)c(O)c1; target = Beta-1 adrenergic receptor (ADRB1, Homo sapiens, UniProt P08588); test = agonist; endpoint = Emax; result = 102%

Excerpt of the above (set 3):
Oligonucleotide = CACTCATAGTCTTGCTATCCTTCATATACAGAGATGACCCTCCCAAGCCTAAAATCAACAGGGGGAGGCATAGAGCTGTCCTTCTGGCTCTAATGTTTGCTTTACCATCATCTTAGTCCATCCACGCCCATGCATGTGAGAGCCAGTGTGAAGTGAGCAGAATATGGCATAAGTATGGAGTCATACATCCTTA; result = 0.381 ratio
Oligonucleotide = ATCTTCCCCCTCTTCCTTGCCCCACCAGCTCACCTACGGGGGTTATTTGCAGATAGGAAAATAAATAAAGCCGGCATTCGTTAACGCAGTTCACGCGCATACTGCTGTTTGCTCTGCATGAATCATGGTCCTTACGCGACGCCAGGCTCCGGGAGAGCAAAGCACCGTGTCAGGCGCATGATCCGGGCTCGCC; result = 0.357 ratio
Oligonucleotide = CATTAGAGTCAAAGTTGTTAAGGGGAGCTAGTCATAGCTACCACGTGGCCAGGCATGTATGAATCATCAGGAACCAGACACCAGGCACACATCTATTTACTTTAAATAATGCTGACAACCTAGTTCATAGTGACACACTACTTGAGATATATAGAATAACATTATTACCCAGTAAGTATGTGAACATTCCGAT; result = 0.366 ratio
Oligonucleotide = GCGTAGCGGCCGTAGCACCAGTTCCCGCCTCCCCCGCGGCCCGGCGCTGCGGGCGGGACCTGCGGCGACCTGTGGGCGGAAGTCTGTGGCTTTATTTACACAGAGGGCAGCCCGTGGAGGCTAGCCTTGTAAGGACGAATCGCTGGCGGGCCTGTGGGGGAGGCCAGGAAAGGCGGCCTTCGCCTGATAGGAA; result = 0.462 ratio
Oligonucleotide = GTTTGGCATTTATTTTTACTTTGTTGTAATAGTAATCTCAAGGGATCCCCTTTATTTAGCATAAAATTTCCTTGCCAGAAAGTAATTTTTTGAAGATTATATAAGCAGCTATAAAAACAATTTCCTGAGAGATTTCTCCACAAAAATATTTACCTGCTTGAGCCGATGGATTGAGATGATTTGGAAACCAAAC; result = -0.0153 ratio
